{"data": "Assay results of several laboratories", "note": "Each numbered part is a random draw from the data of one study; scales do not carry over between parts. Positions count from the first letter of the parent shown."}
{"data": "Sample 1", "target": "Ras GTPase-activating protein-binding protein 1, C-terminal RGG region (G3BP1, Homo sapiens, UniProt Q13283)", "method": "RNA Bind-n-Seq", "molecule type": "RNA", "medium": "in vitro", "concentration": "1 µM", "setting": "whole 134-nt RNA, ends assumed", "added": "150 mM KCl", "relative to": "input library", "reading": "higher = stronger binding", "all sequences stand within": "GGGAGUUCUACAGUCCGACGAUC … UGGAAUUCUCGGGUGUCAAGG", "chain of UniProt Q13283 (whole entry, looked up)": "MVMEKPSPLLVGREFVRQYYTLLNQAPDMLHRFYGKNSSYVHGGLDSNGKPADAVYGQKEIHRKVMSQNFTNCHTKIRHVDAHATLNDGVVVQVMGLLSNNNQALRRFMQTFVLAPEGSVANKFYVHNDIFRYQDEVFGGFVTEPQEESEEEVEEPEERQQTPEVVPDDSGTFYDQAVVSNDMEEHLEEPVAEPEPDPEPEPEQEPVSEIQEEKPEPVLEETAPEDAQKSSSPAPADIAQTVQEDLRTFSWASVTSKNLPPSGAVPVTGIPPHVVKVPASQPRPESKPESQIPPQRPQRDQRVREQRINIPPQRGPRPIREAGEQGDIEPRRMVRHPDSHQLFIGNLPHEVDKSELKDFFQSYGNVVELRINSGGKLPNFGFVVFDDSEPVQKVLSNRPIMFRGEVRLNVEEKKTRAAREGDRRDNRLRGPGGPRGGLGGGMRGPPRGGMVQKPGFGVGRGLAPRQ"}
{"Sequence": "UUCGUUUUUUUCCUUAGUCUGAAGUUGCAGCCGGAGUGAAGAAGAGCGGACCGCUGCCCAGUGCUGAGGUAGAGUGUCGGAUCUGUUUUC", "log2 enrichment": -1.83}
{"Sequence": "CAAGUCCUGUGCUACACAUCGUAUGUACCGAAUCGGGUUUGGUUUGGGGUUUGGGGAAAGUAUUAUGUUACGCCGUUCGGAUCUGCACUU", "log2 enrichment": -0.00811}
{"Sequence": "UCCUGUGCUACACAUCGUAUGUACCGAAUCGGGGUUUUUGGGGUUUGGGGUUUUUGGGGAAAGUAUUAUGUUACGCCGUUCGGAUCUGCA", "log2 enrichment": 3.1}
{"Sequence": "CACAGACAACACACACCCACACAGACACAGAGGGAAGGGGUUGGGAUGGGGACAGGGUGCACAGCAGGGCGGGGUAGGACCCCAGCCCCU", "log2 enrichment": -0.394}
{"Sequence": "CAAGUCCUGUGCUACACAUCGUAUGUACCGAAUCGGGUGGGAAAAAAAGGGUGGGAAAGUAUUAUGUUACGCCGUUCGGAUCUGCACUUC", "log2 enrichment": 0.827}
{"Sequence": "UCCUCAAGUCCUGUGCUACACAUCGUAUGUACCGAAUCGGUGGUUUGGAGGAAAGUAUUAUGUUACGCCGUUCGGAUCUGCACUUCCAGC", "log2 enrichment": -0.976}
{"Sequence": "UUCAAGGAAAAACAAGAGGAGCAGGCUCGCCUCCUUGAUGAACUGGCAGGCAAGCUACAAAGCCUAGACCUUUCAGCCGCUGCCGAAAUG", "log2 enrichment": -1.73}
{"Sequence": "CCUGUGCUACACAUCGUAUGUACCGAAUCGGGGCCCCCCGGGGCCCCCCGGGCCCCCCGGGAAAGUAUUAUGUUACGCCGUUCGGAUCUG", "log2 enrichment": -1.71}
{"Sequence": "AGUCCUGUGCUACACAUCGUAUGUACCGAAUCGGGGAGGGGUUUUUGGGGUUUGGGGAAAGUAUUAUGUUACGCCGUUCGGAUCUGCACU", "log2 enrichment": 0.746}
{"data": "Sample 2", "target": "CCNB2, cyclin fold, Cln2 fusion (human)", "method": "yeast growth competition, sequencing", "medium": "yeast", "setting": "weak parent motif", "relative to": "not given", "reading": "higher = stronger binding", "parent": "RB1 docking peptide (human); PKPLKKLRFDIEG"}
{"Substitution": "PKPLKKLRRDIEG [F9R]", "normalised enrichment score": 0.12}
{"Substitution": "PKPLTKLRFDIEG [K5T]", "normalised enrichment score": 0.223}
{"Substitution": "PKPLKKLAFDIEG [R8A]", "normalised enrichment score": -0.128}
{"Substitution": "PKPLKKLRFDIVG [E12V]", "normalised enrichment score": -0.0533}
{"Substitution": "PKPLKKLRFPIEG [D10P]", "normalised enrichment score": 0.383}
{"Substitution": "PRPLKKLRFDIEG [K2R]", "normalised enrichment score": 0.324}
{"Substitution": "PKPLKKLRFDIED [G13D]", "normalised enrichment score": 0.3}
{"Substitution": "PKPLKKLRHDIEG [F9H]", "normalised enrichment score": 0.431}
{"Substitution": "PKPLKKLFFDIEG [R8F]", "normalised enrichment score": 0.0417}
{"Substitution": "PKPLKALRFDIEG [K6A]", "normalised enrichment score": 0.711}
{"Substitution": "PKTLKKLRFDIEG [P3T]", "normalised enrichment score": 0.355}
{"Substitution": "PKPPKKLRFDIEG [L4P]", "normalised enrichment score": 0.0601}
{"Substitution": "RKPLKKLRFDIEG [P1R]", "normalised enrichment score": 0.28}
{"Substitution": "SKPLKKLRFDIEG [P1S]", "normalised enrichment score": 0.163}
{"Substitution": "PKPLKKLRFDKEG [I11K]", "normalised enrichment score": 0.247}
{"Substitution": "PKPLKNLRFDIEG [K6N]", "normalised enrichment score": -0.246}
{"data": "Sample 3", "target": "RNA binding protein fox-1 homolog 2, RRM domain, GST-SBP tag (RBFOX2, Homo sapiens, UniProt O43251-10, residues 100-194)", "method": "RNA Bind-n-Seq", "molecule type": "RNA", "medium": "in vitro", "concentration": "365 nM", "setting": "natural RNA segment, single round, ends assumed", "relative to": "no-protein control", "reading": "higher = stronger binding", "all sequences stand within": "GGGAGUUCUACAGUCCGACGAUC … UGGAAUUCUCGGGUGCCAA", "Residues (chain)": "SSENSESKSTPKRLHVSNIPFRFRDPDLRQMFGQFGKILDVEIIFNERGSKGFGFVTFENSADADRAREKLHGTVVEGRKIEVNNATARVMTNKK"}
{"Sequence": "UAAGAAGAACCUGAGAAGGUUUUAUUUAUCGGUGGGGGAAGUAUAGCAAACGGUUCUAAAUGAAAAUCAGCAAACCUGAAAGCCUGGGAUUCUGACGCCUACUGGCUCUA", "RBNS enrichment (R)": 0.221}
{"Sequence": "CAGAUUUAUAAUUUAUUGAAGUUCCCCUUUUAGUGAGACCAACCCAUGUUUUCCUAUUCAUCUUAGUUCAUUUAGGGAUAGUCUGGGUUUCCCAGAAAAUGUGGAGCCAG", "RBNS enrichment (R)": 0.352}
{"Sequence": "GUAAUUUCCCAUUAGCAUAAUUUUAUGUUGUACAAGUAAAUUACAAUUCCAUCUCUAAUCUUGGAUAAUACUGGUUGGUUAACAAUAAAGUGACAAAAGCUCCCGCCUUG", "RBNS enrichment (R)": 0.496}
{"Sequence": "UGUACUUUCCUACCCCAAGAGGAAGUUUUCUGAAAUAAGAUUUAAAAACAAAACAAAAAAAACACUUAAUAUUUCAGACUGUUACAGGAAACACCCUUUAGUCUGUCAGU", "RBNS enrichment (R)": 0.434}
{"Sequence": "GGGUAGUGGGAGAGUAUAAGUGACUUGAGACAGAGUGUCCUUGCUCAGAAAACUGUGAAGCAGGGGUCUUGUUAGUUACAAAGCCAGUCCUAGUUGCAUGUCCAAGGGGG", "RBNS enrichment (R)": 11.1}
{"Sequence": "GGAAUCUCAAACUCCCUUUGGCCCUGAACCAGGGCCAGAUAAGGAACAGCUCGGGCCACUCUUCUGAAGGCCAACGUGGAGGAAAGGGAGCAGCCAGCCAUUUGGGAGAA", "RBNS enrichment (R)": 0.375}
{"Sequence": "CUCAGCCCUGGUGGCGGCAGAGAAGCGGGCGAGGCACUGUGGUCGCUGAGGGGGUUGGCUGGGUCUGAGUGCCACCCCCCAGGCCACAGUGAUACCAUCCCAGUGCCAUG", "RBNS enrichment (R)": 0.727}
{"Sequence": "UAGACUAUGGUGUCAGUGAUUUUUGCAGAACACGUGCACAACCCUGAGGUAUGUUUAAUCUAGGCAGGUACGUUUAAGGAUAUUUUGAUCUAUUUAUAAUGAAUUCACAA", "RBNS enrichment (R)": 1.82}
{"data": "Sample 4", "target": "Histone acetyltransferase KAT6A, both winged helices, GST fusion (KAT6A, Homo sapiens, UniProt Q92794, residues 1-181)", "method": "protein binding microarray", "molecule type": "double-stranded DNA, one strand shown", "medium": "in vitro", "concentration": "not given", "setting": "8-mer, flanks averaged, mean of 2 arrays, mostly near background", "relative to": "not given", "reading": "higher = stronger binding", "Construct (chain)": "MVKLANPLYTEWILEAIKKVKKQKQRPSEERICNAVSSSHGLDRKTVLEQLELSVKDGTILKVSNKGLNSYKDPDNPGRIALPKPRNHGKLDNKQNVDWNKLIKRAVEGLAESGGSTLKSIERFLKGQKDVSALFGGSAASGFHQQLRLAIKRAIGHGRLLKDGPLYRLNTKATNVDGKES"}
{"Sequence": "AGAGTTAT", "E-score": -0.189}
{"Sequence": "CAACGCAA", "E-score": 0.14}
{"Sequence": "ACCCGATG", "E-score": 0.132}
{"Sequence": "CTCCGATC", "E-score": 0.0651}
{"Sequence": "AAAGTCGT", "E-score": -0.108}
{"Sequence": "ACACGGAT", "E-score": 0.156}
{"Sequence": "AATATTTG", "E-score": -0.0551}
{"Sequence": "AAGGTCTC", "E-score": 0.0398}
{"Sequence": "AGACGTCT", "E-score": -0.089}
{"Sequence": "AATATTGC", "E-score": -0.00793}
{"Sequence": "CTTCTTCA", "E-score": -0.0204}
{"Sequence": "ATTGACAG", "E-score": 0.0905}
{"Sequence": "AATCCCGG", "E-score": 0.154}
{"Sequence": "AATGTCAG", "E-score": -0.135}
{"Sequence": "AAACGTGG", "E-score": -0.226}
{"Sequence": "CACTTGCC", "E-score": -0.133}
{"Sequence": "GCTGGACC", "E-score": -0.111}
{"Sequence": "AACAGCGT", "E-score": 0.169}
{"Sequence": "AGGCGTAC", "E-score": 0.0488}
{"Sequence": "ACTTCCTA", "E-score": -0.151}
{"Sequence": "CGCTATGC", "E-score": 0.286}
{"Sequence": "CTGGCTCC", "E-score": -0.0528}
{"Sequence": "ACCGAGAC", "E-score": -0.0199}
{"Sequence": "AGTAGCAT", "E-score": -0.192}
{"Sequence": "GAGAGTTA", "E-score": -0.258}
{"note": "A few entries again (sample 2):"}
{"Substitution": "RKPLKKLRFDIEG [P1R]", "normalised enrichment score": 0.28}
{"Substitution": "PKPLKKLRHDIEG [F9H]", "normalised enrichment score": 0.431}
{"Substitution": "PKPLKKLRRDIEG [F9R]", "normalised enrichment score": 0.12}
{"Substitution": "PKPLKKLRFDIVG [E12V]", "normalised enrichment score": -0.0533}
